Results from different studies.
Each line is one published result; not all experiments were run side by side. ± marks the error that the study gave.
Target: Mu-type opioid receptor (Oprm1, Rattus norvegicus, UniProt P33535)
Chain of UniProt P33535 (whole entry, looked up): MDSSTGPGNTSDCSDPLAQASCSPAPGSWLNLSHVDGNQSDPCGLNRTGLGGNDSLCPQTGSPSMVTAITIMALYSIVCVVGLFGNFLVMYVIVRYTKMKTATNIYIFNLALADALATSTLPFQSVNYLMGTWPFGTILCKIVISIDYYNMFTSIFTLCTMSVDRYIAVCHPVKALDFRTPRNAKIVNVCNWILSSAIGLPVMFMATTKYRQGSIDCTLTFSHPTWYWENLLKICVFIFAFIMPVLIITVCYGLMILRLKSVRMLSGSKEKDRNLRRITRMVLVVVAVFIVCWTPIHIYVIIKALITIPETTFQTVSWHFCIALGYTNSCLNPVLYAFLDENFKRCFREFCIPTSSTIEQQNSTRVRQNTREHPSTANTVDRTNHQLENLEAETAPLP

The efficacy of `CCNC(=O)c1cc(Cc2ccccc2)cc2c1NCCC2NC(=O)C(N)Cc1c(C)cc(O)cc1C` (stereo not shown) is reported as 56% (agonist; C6 cells expressing MOR; relative to: DAMGO at 10 µM).
With `CCCC[C@@H](C(=O)N[C@@H](CC(=O)O)C(=O)N[C@@H](Cc1ccccc1)C(N)=O)N(C)C(=O)[C@@H](Cc1c[nH]c2ccccc12)NC(=O)CNC(=O)[C@@H](Cc1ccccc1)NC(=O)[C@@H](N)Cc1ccc(O)cc1` the EC50 was 52.7 nM (GTPγS binding, agonist).
For `CCCCC(=N)NCc1ccc2[nH]c3c(c2c1)CC1(O)C2Cc4ccc(O)c5c4C1(CCN2CC1CC1)C3O5` (stereo not shown), the Ke was 0.56 ± 0.26 nM (antagonist; C6 cells expressing µ receptor; added: DAMGO).
`CC(=O)N1CCC(NC(=O)C(N)Cc2c(C)cc(O)cc2C)c2cc(CN3CCc4ccccc4C3)ccc21` (stereo not shown) gave a maximal stimulation of 91 ± 8% (agonist; 10 µM; relative to: DAMGO).
The maximal inhibition of `Cc1cc(O)cc(C)c1C[C@H](N)C(=O)N1Cc2ccccc2C[C@H]1CN[C@@H](Cc1ccccc1)C(=O)N[C@@H](Cc1ccccc1)C(N)=O` is reported as 64 ± 10% (cAMP production, inhibitor; C6 cells expressing mu opioid receptor; added: forskolin).
With `Cc1cc(O)cc(C)c1CC(N)C(=O)NC1CCNc2c(Br)cc(Cc3ccccc3)cc21` (stereo not shown) the efficacy was 73% (agonist; C6 cells expressing MOR; relative to: DAMGO at 10 µM).
With `NC(=O)[C@H](CO)NC(=O)[C@@H]1CCCN1C(=O)[C@H](Cc1ccc(O)cc1)NC(=O)CNC(=O)[C@H](Cc1ccccc1)NC(=O)[C@@H](CCCN=C=S)NC(=O)[C@@H](N)Cc1ccc(O)cc1` the inhibition was 40 ± 8% ([3H]DAMGO binding, wash-resistant binding; about IC50).
`Cc1cc(O)cc(C)c1C[C@H](N)C(=O)N[C@@H]1CSCCSC(C)(C)[C@H](C(N)=O)NC(=O)C2(Cc3ccccc3C2)NC1=O` has a potency ratio of 480 fold (G protein activation, agonist; relative to: compound over morphine, higher = more potent).
`NC(=O)[C@H](CO)NC(=O)[C@@H]1CCCN1C(=O)[C@H](Cc1ccc(O)cc1)NC(=O)CNC(=O)[C@H](Cc1ccccc1)NC(=O)[C@@H](CCCCNC(=O)CBr)NC(=O)[C@@H](N)Cc1ccc(O)cc1` has an inhibition of 32 ± 1% ([3H]DAMGO binding, wash-resistant binding; about IC50).
The efficacy of `Cc1cc(O)cc(C)c1CC(N)C(=O)NC1CCNc2c(C(=O)O)cc(Cc3ccccc3)cc21` (stereo not shown) is reported as 67% (agonist; C6 cells expressing MOR; relative to: DAMGO at 10 µM).
`CC(C)C[C@H](NC(=O)[C@H](Cc1ccc2ccccc2c1)NC(=O)CNC(=O)[C@H](NC(=O)[C@@H](N)Cc1ccc(O)cc1)[C@H](C)O)C(=O)N[C@@H](CO)C(N)=O` has an Emax of 101% (GTPγS binding, agonist, radiometric; cell membranes).
With `Cc1cc(O)cc(C)c1CC(N)C(=O)NC1CCNc2ccc(CN3CCCCC3)cc21` (stereo not shown) the maximal stimulation was 73 ± 8% (agonist; 10 µM; relative to: DAMGO).
The efficacy of `Cc1cc(O)cc(C)c1CC(N)C(=O)NC1CCNc2c(CN3CCOCC3)cc(Cc3ccccc3)cc21` (stereo not shown) is reported as 96% (agonist; C6 cells expressing MOR; relative to: DAMGO at 10 µM).
`Cc1cc(O)cc(C)c1C[C@H](N)C(=O)N1Cc2ccccc2C[C@H]1C(=O)NCC(=O)NCc1ccccc1` gave a maximal inhibition of 30 ± 10% (cAMP production, inhibitor; C6 cells expressing mu opioid receptor; added: forskolin).
`Cc1cc(O)cc(C)c1CC(N)C(=O)NC1CCNc2ccc(CN3CCOCC3)cc21` (stereo not shown) has a maximal stimulation of 82 ± 2% (agonist; 10 µM; relative to: DAMGO).
`CC(C)C[C@H](NC(=O)[C@H](Cc1ccc2ccccc2c1)NC(=O)CNC(=O)[C@H](NC(=O)[C@@H](N)Cc1ccc(O)cc1)[C@H](C)O)C(=O)N[C@@H](CO[C@@H]1O[C@H](CO)[C@@H](O)[C@H](O)[C@H]1O)C(N)=O` gave an Emax of 93% (GTPγS binding, agonist, radiometric; cell membranes).
For `CC(C)C[C@H](NC(=O)[C@@H]1CCCN1C(=O)[C@@H]1NC(=O)[C@H](Cc2ccccc2)NC(=O)CNC(=O)[C@H](NC(=O)[C@@H](N)Cc2ccc(O)cc2)C(C)(C)SSC1(C)C)C(=O)N[C@@H](Cc1c[nH]c2ccccc12)C(=O)NCc1cc(C(F)(F)F)cc(C(F)(F)F)c1`, the Emax was 28% (GTPγS binding, agonist, radiometric; cell membranes).
`Cc1cc(O)cc(C)c1CC(N)C(=O)NC1CCNc2ccc(CN3CCC4CCCCC4C3)cc21` (stereo not shown) has a maximal stimulation of 56 ± 2% (agonist; 10 µM; relative to: DAMGO).
`Cc1cc(O)cc(C)c1CC(N)C(=O)NC1CCNc2c1cc(Cc1ccccc1)cc2C(F)(F)F` (stereo not shown) has an efficacy of 70% (agonist; C6 cells expressing MOR; relative to: DAMGO at 10 µM).
For `Cc1cc(O)cc(C)c1C[C@H](N)C(=O)N[C@@H](C(=O)NCC(=O)N[C@@H](Cc1ccc2ccccc2c1)C(=O)N[C@@H](CC(C)C)C(=O)N[C@@H](CO)C(N)=O)[C@H](C)O`, the Emax was 81% (GTPγS binding, agonist, radiometric; cell membranes).
For `Cc1cc(O)cc(C)c1CC(N)C(=O)NC1CCNc2c(Cc3ccccc3)cc(Cc3ccccc3)cc21` (stereo not shown), the efficacy was 96% (agonist; C6 cells expressing MOR; relative to: DAMGO at 10 µM).
The maximal stimulation of `Cc1cc(O)cc(C)c1CC(N)C(=O)NC1CCNc2ccc(Cc3cccnc3)cc21` (stereo not shown) is reported as 37 ± 7% (agonist; 10 µM; relative to: DAMGO).
